Experimental data of several laboratories.
Compare with care: the assays were run in different laboratories. ± marks the error that the study gave.
JAK2 SH2 domain: Tyrosine-protein kinase JAK2, SH2 domain (JAK2, Homo sapiens, UniProt O60674)
Sequence of UniProt O60674 (whole entry, looked up): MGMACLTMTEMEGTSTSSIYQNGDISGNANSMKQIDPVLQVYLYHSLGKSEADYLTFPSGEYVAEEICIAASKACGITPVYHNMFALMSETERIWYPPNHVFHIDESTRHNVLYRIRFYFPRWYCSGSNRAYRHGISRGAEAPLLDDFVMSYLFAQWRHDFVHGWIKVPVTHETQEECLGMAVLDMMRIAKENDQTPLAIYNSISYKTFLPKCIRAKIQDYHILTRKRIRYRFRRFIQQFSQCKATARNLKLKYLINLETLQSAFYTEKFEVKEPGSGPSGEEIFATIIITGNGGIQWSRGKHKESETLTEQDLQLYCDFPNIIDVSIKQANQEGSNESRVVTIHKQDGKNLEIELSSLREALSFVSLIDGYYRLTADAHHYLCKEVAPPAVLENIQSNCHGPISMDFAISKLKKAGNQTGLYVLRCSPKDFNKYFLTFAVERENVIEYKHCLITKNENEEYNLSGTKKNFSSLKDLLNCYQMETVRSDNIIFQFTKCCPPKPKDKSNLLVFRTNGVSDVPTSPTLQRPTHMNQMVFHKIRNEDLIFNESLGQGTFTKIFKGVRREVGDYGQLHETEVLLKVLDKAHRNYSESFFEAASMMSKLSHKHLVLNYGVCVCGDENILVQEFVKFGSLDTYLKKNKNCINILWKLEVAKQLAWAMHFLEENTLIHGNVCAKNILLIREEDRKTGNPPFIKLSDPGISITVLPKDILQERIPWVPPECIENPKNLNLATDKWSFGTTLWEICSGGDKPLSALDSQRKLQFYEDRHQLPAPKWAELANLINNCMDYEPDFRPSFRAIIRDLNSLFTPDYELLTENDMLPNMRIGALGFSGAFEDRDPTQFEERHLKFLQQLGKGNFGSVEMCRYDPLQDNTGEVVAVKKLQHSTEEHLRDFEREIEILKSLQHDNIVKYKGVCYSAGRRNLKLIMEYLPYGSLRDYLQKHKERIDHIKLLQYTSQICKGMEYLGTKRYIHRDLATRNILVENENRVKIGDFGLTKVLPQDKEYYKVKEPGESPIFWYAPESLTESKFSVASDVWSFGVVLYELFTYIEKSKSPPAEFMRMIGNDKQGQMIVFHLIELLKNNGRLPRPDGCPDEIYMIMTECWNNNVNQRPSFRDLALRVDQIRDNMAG
Adapter molecule crk SH2 domain: Adapter molecule crk, SH2 domain (Homo sapiens, UniProt P46108)
Sequence of UniProt P46108 (whole entry, looked up): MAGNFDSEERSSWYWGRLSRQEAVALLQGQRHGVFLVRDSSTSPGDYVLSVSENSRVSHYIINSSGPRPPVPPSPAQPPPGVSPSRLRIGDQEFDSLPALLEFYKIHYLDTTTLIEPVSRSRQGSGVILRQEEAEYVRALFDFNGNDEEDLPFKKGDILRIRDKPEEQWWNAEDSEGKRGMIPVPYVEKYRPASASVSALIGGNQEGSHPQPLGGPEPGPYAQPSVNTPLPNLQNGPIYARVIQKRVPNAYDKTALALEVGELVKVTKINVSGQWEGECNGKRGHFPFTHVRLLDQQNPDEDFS
Sequence of UniProt P00512 (whole entry, unmodified, looked up): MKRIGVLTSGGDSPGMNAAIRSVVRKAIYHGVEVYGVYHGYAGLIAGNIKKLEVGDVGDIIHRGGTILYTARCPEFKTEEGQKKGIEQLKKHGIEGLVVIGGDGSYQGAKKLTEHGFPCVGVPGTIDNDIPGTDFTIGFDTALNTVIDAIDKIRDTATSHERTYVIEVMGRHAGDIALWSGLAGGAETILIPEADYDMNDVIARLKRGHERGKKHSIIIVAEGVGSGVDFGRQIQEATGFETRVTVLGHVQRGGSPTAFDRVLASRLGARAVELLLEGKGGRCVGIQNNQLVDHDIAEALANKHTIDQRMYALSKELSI
Sequence of UniProt Q88FY2 (whole entry, unmodified, looked up): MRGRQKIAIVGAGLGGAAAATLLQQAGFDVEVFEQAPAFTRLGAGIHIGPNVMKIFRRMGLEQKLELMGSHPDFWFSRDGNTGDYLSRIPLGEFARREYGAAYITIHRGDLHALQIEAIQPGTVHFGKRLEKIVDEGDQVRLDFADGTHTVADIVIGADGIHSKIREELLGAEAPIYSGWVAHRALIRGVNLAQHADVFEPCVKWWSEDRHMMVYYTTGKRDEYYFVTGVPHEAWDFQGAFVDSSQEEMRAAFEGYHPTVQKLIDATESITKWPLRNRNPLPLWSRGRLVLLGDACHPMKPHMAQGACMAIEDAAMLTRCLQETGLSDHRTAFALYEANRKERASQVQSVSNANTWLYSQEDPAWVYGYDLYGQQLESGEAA
Sequence of UniProt P52630 (whole entry, looked up): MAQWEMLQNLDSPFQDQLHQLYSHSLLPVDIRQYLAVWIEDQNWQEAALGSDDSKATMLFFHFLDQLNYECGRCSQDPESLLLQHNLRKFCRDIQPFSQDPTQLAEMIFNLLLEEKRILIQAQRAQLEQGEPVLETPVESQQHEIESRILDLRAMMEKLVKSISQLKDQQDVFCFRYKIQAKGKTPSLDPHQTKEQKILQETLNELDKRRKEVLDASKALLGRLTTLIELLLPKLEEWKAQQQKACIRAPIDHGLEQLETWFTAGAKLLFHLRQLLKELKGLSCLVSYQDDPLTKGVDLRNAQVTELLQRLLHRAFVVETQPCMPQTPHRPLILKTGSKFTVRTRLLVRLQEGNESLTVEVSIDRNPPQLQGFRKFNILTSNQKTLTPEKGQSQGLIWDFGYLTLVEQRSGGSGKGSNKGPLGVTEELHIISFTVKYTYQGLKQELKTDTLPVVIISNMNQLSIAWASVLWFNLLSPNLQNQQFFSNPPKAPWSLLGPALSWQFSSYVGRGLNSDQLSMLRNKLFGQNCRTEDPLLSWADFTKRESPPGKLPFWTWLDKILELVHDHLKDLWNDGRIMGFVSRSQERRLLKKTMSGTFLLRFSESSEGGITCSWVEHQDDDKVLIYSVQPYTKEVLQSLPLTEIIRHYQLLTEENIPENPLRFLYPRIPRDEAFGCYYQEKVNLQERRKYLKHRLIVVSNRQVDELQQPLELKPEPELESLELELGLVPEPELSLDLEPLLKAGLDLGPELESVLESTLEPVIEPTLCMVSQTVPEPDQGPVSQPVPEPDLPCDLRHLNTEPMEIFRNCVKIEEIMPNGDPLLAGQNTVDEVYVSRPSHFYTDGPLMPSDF
Sequence of UniProt P02716 (whole entry, looked up): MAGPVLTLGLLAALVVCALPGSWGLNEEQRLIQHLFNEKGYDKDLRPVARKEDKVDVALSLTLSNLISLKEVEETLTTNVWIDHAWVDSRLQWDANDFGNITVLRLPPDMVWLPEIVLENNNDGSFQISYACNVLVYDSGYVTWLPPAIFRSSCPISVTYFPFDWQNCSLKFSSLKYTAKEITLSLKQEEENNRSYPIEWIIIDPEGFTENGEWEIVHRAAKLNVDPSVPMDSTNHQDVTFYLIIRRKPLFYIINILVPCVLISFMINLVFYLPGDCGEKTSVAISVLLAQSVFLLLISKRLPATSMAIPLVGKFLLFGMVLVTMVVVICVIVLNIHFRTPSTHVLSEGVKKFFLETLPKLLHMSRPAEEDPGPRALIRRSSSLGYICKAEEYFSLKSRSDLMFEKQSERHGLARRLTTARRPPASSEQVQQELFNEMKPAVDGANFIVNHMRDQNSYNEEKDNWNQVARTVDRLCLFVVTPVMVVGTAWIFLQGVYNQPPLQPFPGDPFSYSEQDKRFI
Sequence of UniProt P20782 (whole entry, looked up): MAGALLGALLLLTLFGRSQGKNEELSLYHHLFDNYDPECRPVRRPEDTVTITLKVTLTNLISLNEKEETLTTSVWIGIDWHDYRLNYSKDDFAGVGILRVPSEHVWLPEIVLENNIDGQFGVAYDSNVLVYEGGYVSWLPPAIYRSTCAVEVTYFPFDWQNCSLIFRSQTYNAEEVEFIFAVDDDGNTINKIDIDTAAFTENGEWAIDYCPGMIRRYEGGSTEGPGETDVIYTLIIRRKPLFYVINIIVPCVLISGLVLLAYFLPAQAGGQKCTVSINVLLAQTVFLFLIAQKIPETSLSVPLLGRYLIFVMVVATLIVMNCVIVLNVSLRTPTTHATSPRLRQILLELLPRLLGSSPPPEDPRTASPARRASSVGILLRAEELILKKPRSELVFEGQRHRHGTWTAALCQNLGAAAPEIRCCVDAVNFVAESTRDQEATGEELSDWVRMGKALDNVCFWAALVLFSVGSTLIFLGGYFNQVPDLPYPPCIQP
Sequence of UniProt Q92PC8 (whole entry, unmodified, looked up): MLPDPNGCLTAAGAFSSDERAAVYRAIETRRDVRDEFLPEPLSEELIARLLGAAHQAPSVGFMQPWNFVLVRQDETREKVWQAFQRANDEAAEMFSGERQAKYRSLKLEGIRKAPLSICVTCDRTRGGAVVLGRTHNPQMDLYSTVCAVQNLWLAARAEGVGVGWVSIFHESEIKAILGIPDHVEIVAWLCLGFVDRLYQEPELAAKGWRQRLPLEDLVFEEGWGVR
Sequence of UniProt P04756 (whole entry, looked up): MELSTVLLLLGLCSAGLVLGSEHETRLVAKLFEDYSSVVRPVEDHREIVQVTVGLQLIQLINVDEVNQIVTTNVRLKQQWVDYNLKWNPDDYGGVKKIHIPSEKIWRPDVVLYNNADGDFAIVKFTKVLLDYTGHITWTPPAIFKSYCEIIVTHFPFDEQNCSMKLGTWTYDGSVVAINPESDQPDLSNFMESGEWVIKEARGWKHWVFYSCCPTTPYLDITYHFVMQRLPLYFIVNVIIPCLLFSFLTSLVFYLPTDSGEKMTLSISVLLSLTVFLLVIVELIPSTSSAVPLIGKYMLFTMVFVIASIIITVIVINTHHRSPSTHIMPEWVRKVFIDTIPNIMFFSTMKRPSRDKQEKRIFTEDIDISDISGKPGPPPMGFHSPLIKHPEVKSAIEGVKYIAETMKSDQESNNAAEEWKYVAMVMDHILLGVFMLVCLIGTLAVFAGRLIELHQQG
Sequence of UniProt P46109 (whole entry, looked up): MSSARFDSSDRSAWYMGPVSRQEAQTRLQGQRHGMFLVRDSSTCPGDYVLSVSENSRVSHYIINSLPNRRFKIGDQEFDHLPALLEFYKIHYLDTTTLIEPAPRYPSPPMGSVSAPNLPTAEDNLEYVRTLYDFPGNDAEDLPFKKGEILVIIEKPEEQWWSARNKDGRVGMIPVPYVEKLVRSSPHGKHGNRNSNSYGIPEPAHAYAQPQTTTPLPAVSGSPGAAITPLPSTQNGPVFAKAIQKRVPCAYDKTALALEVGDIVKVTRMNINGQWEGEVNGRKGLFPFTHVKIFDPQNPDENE

CSCC[C@H](N)C(=O)N[C@@H](C)C(=O)N[C@@H](C)C(=O)N[C@H](C(=O)N[C@@H](C)C(=O)NCC(=O)N[C@@H](CC(C)C)C(=O)N[C@@H](Cc1ccc(O)cc1)C(=O)NCC(=O)N[C@@H](CC(C)C)C(=O)NCC(=O)N[C@@H](CCC(=O)O)C(=O)N[C@@H](CC(=O)O)C(=O)N[C@@H](CCCNC(=N)N)C(=O)N[C@@H](CCC(N)=O)C(=O)N[C@@H](Cc1c[nH]cn1)C(=O)N[C@@H](CCCNC(=N)N)C(=O)N[C@@H](CCCCN)C(=O)N[C@@H](CCCCN)C(=O)N[C@@H](CCC(N)=O)C(N)=O)C(C)C  Kd (Sh, DEL6-46 (Drosophila melanogaster, UniProt P08510); ion current, blocker, inside-out patch clamp; +90 mV): 3.5 µM
C[N+](C)(C)[C@@H](Cc1c[nH]c(=S)[nH]1)C(=O)[O-]  Kd (egtUBC (Streptococcus pneumoniae, UniProt A0A0H2ZQB9); binding): 0.111 µM
CSCC[C@H](NC(=O)[C@H](Cc1ccc(OP(=O)(O)O)cc1)NC(=O)CNC(=O)CNC(=O)[C@H](CC(=O)O)NC(=O)[C@H](CO)NC(=O)[C@H](CCC(=O)O)NC(=O)CNC(=O)[C@@H](NC(=O)[C@H](CC(C)C)NC(=O)[C@H](CO)NC(=O)c1ccc2c(c1)C(=O)OC21c2ccc(N(C)C)cc2Oc2cc(N(C)C)ccc21)[C@@H](C)O)C(=O)N[C@@H](CC(=O)O)C(=O)N[C@@H](CCSC)C(=O)N[C@@H](CO)C(=O)N[C@@H](CCCCN)C(=O)N[C@@H](CC(=O)O)C(=O)N[C@@H](CCC(=O)O)C(=O)N[C@@H](CC(=O)O)C(=O)O  Kd (JAK2 SH2 domain; binding): 1.41 µM
CC(C)C[C@H](NC(=O)CNC(=O)[C@H](CCCNC(=N)N)NC(=O)c1ccc2c(c1)C(=O)OC21c2ccc(O)cc2Oc2cc(O)ccc21)C(=O)N[C@@H](Cc1c[nH]c2ccccc12)C(=O)N[C@@H](Cc1ccc(O)cc1)C(=O)N[C@@H]1CSC[C@@H](C(=O)N[C@@H](Cc2c[nH]c3ccccc23)C(=O)NCC(=O)N[C@@H](CCCNC(=N)N)C(=O)N[C@H](C(=O)NCC(=O)N[C@@H](CCCNC(=N)N)C(=O)N[C@@H](CCCNC(=N)N)C(=O)NCCCOCCOCCOCCCNC(=O)CCC(=O)NCCCOCCOCCOCCCNC(=O)CCC(=O)NCCCOCCOCCOCCCNC(=O)CCC(=O)N[C@@H](C)C(=O)O)C(C)C)NC(=O)[C@H](CO)NC(=O)[C@H](CC(C)C)NC1=O  Kd (srtA (Staphylococcus aureus, UniProt Q2FV99); binding, fluorescence polarization; pH 7.5): 11.3 ± 0.75 µM
CC(C)C[C@H](NC(=O)[C@@H](NC(=O)[C@H](CO)NC(=O)[C@H](CO)NC(=O)[C@@H](NC(=O)[C@H](CC(=O)O)NC(=O)[C@H](CC(C)C)NC(=O)[C@@H]1CCCN1C(=O)[C@H](CO)NC(=O)c1ccc2c(c1)C(=O)OC21c2ccc(N(C)C)cc2Oc2cc(N(C)C)ccc21)[C@@H](C)O)C(C)C)C(=O)N[C@@H](Cc1ccc(OP(=O)(O)O)cc1)C(=O)N[C@H](C(=O)N[C@@H](C)C(=O)N[C@H](C(=O)N[C@@H](CCC(N)=O)C(=O)N1CCC[C@H]1C(=O)N[C@@H](CC(N)=O)C(=O)N[C@@H](CCC(=O)O)C(=O)N[C@@H](CC(=O)O)C(=O)O)C(C)C)[C@@H](C)O  Kd (Adapter molecule crk SH2 domain; binding): 1.59 µM
CC[C@H](C)[C@H](NC(=O)[C@H](CCC(N)=O)NC(=O)[C@@H](NC(=O)[C@@H]1CCCN1C(=O)[C@@H](NC(=O)[C@H](CO)NC(=O)[C@H](Cc1ccccc1)NC(=O)[C@@H]1CCCN1C(=O)[C@H](CCC(N)=O)NC(=O)[C@@H](N)CCSC)[C@@H](C)CC)C(C)C)C(=O)N[C@H](C(=O)N[C@@H](CC(C)C)C(=O)N[C@@H](CCC(N)=O)C(=O)NCC(=O)N[C@@H](CO)C(=O)N[C@@H](CCCNC(=N)N)C(=O)N[C@@H](CCCNC(=N)N)C(=O)N[C@@H](CCCNC(=N)N)C(=O)N[C@@H](CCC(N)=O)C(=O)NCC(=O)N[C@@H](CCCNC(=N)N)C(N)=O)[C@@H](C)O  Kd (Kcnma1 (Mus musculus, UniProt Q08460); ion current, blocker, inside-out patch clamp; Xenopus oocytes; +140 mV, with: 10 µM cytosolic Ca2+): 0.25 µM
CSCC[C@H](NC(=O)CNC(=O)[C@H](Cc1ccccc1)NC(=O)[C@H](CC(=O)O)NC(=O)CNC(=O)c1ccc2c(c1)C(=O)OC21c2ccc(N(C)C)cc2Oc2cc(N(C)C)ccc21)C(=O)N[C@@H](CO)C(=O)N[C@@H](CCCNC(=N)N)C(=O)N[C@@H](CC(=O)O)C(=O)N[C@H](C(=O)N[C@@H](Cc1ccc(OP(=O)(O)O)cc1)C(=O)N[C@@H](CO)C(=O)N[C@H](C(=O)N[C@@H](CC(=O)O)C(=O)N[C@@H](Cc1ccc(O)cc1)C(=O)N[C@@H](Cc1ccc(O)cc1)C(=O)N[C@@H](CCCNC(=N)N)C(=O)N[C@H](C(=O)N[C@@H](CC(=O)O)C(=O)O)C(C)C)[C@@H](C)O)C(C)C  Kd (Crk-like protein, SH2 domain (Homo sapiens, UniProt P46109); binding): 0.821 µM
O=C(O)c1ccc(O)nc1  Kd (6-hydroxynicotinate 3-monooxygenase (nicC, Pseudomonas putida, UniProt Q88FY2, H47Q); binding): 1100 ± 100 µM
COc1ccc(C[C@@H](C)NC[C@H](O)c2ccc(O)c3[nH]c(=O)ccc23)cc1  Kd (ADRB1 (Meleagris gallopavo, UniProt P07700, A282L/C116L/F327A/F338M/M90V/R68S/Y227A); binding, [3H]-CGP 12177 competition binding; CHO cells expressing ADRB1 β6-m23, whole cells): 1.74 µM
C=C(OP(=O)(O)O)C(=O)O  Kd (pfkA (Geobacillus stearothermophilus, UniProt P00512, D12A)): 0.45 ± 0.01 µM
Cn1c2cccc(=O)c-2nc2ccccc21  Kd (TetR-family regulator NalD (Pseudomonas aeruginosa, UniProt Q9HY46); surface plasmon resonance; 25 °C): 7.03 µM
COc1cc2c3cc1Oc1cc(ccc1O)C[C@@H]1c4c(cc(OC)c(O)c4Oc4ccc(cc4)C[C@@H]3N(C)CC2)CC[N+]1(C)C  Kd (Chrnd/Chrna1/Chrne (Mus musculus, UniProt P02716+P04756+P20782); endplate current peak height, inhibitor, two-electrode voltage clamp; mouse hemidiaphragm): 0.04 µM
CC[C@H](C)[C@H](NC(=O)[C@H](Cc1ccc(OP(=O)(O)O)cc1)NC(=O)[C@H](CCC(=O)O)NC(=O)[C@H](Cc1c[nH]cn1)NC(=O)CNC(=O)[C@H](CC(=O)O)NC(=O)[C@H](CO)NC(=O)[C@H](CO)NC(=O)[C@@H](NC(=O)[C@H](CO)NC(=O)[C@H](CCC(=O)O)NC(=O)c1ccc2c(c1)C(=O)OC21c2ccc(N(C)C)cc2Oc2cc(N(C)C)ccc21)C(C)C)C(=O)N[C@@H](Cc1ccc(O)cc1)C(=O)N[C@H](C(=O)N[C@@H](CC(=O)O)C(=O)N1CCC[C@H]1C(=O)N[C@@H](CCSC)C(=O)N[C@@H](CCC(N)=O)C(=O)N[C@@H](CC(=O)O)C(=O)O)C(C)C  Kd (JAK2 SH2 domain; binding): 1.96 µM
Cc1cc2nc3c(=O)[nH]c(=O)nc-3n(C[C@H](O)[C@H](O)[C@H](O)COP(=O)(O)O)c2cc1C  Kd (5,6-dimethylbenzimidazole synthase (bluB, Rhizobium meliloti, UniProt Q92PC8, R34K); binding; Sinorhizobium meliloti): 14 ± 5 µM
O=C(CO)[C@@H](O)[C@H](O)[C@H](O)COP(=O)(O)O  Kd (pfkA (Geobacillus stearothermophilus, UniProt P00512, S159A)): 25 ± 3 µM
C[N+](C)(C)[C@@H](Cc1c[nH]c(=S)[nH]1)C(=O)[O-]  Kd (egtUBC (Streptococcus pneumoniae, UniProt A0A0H2ZQB9, I243A); binding): 1.69 µM
CC[C@H](C)[C@@H]1NC(=O)[C@H]([C@@H](C)CC)NC(=O)[C@@H](Cc2ccc(O)cc2)NC(=O)CSC[C@@H](C(N)=O)NC(=O)[C@H](CCCNC(=N)N)NC(=O)[C@H](CCCCN)NC(=O)[C@H](CC(C)C)NC(=O)[C@H](CO)NC(=O)[C@H](CO)NC(=O)[C@H](CC(C)C)NC(=O)[C@H](Cc2ccccc2)NC(=O)[C@H](C(C)C)NC(=O)CNC(=O)[C@H](CC(C)C)NC(=O)[C@@H]2CCCN2C(=O)[C@H]([C@@H](C)O)NC(=O)[C@H](CC(=O)O)NC1=O  Kd (VPS35/VPS29 (Homo sapiens, UniProt Q96QK1+Q9UBQ0); binding, ITC; 25 °C, heterodimer): 0.106 ± 0.004 µM
C[C@H](NC(=O)[C@@H](NC(=O)[C@H](CO)NC(=O)[C@H](Cc1c[nH]cn1)NC(=O)[C@@H]1CCCN1C(=O)[C@H](CC(=O)O)NC(=O)[C@H](CCC(N)=O)NC(=O)[C@H](Cc1ccc(OP(=O)(O)O)cc1)NC(=O)[C@H](Cc1c[nH]cn1)NC(=O)[C@@H]1CCCN1C(=O)[C@H](CC(=O)O)NC(=O)[C@H](CCCNC(=N)N)NC(=O)[C@H](CO)NC(=O)[C@@H]1CCCN1C(=O)[C@H](C)NC(=O)[C@@H]1CCCN1C(=O)[C@H](CC(N)=O)NC(=O)c1ccc2c(c1)C(=O)OC21c2ccc(N(C)C)cc2Oc2cc(N(C)C)ccc21)[C@@H](C)O)C(=O)N[C@@H](CC(=O)O)C(=O)O  Kd (Adapter molecule crk SH2 domain; binding): 1.23 µM
CN(CC(=O)O)C(=N)NP(=O)(O)O  Kd (CKMT1A (Homo sapiens, UniProt P12532, E265D); microscale thermophoresis; pH 7.0, E227D mutant, no substrate): 225 ± 90 µM
CC[C@H](C)[C@H](NC(=O)[C@H](CC(=O)O)NC(=O)[C@H](C)NC(=O)[C@H](Cc1ccc(O)cc1)NC(=O)[C@H](CCCCN)NC(=O)c1ccc2c(c1)C(=O)OC21c2ccc(N(C)C)cc2Oc2cc(N(C)C)ccc21)C(=O)N[C@@H](CCC(=O)O)C(=O)N[C@@H](CO)C(=O)N[C@@H](CO)C(=O)N[C@@H](CC(N)=O)C(=O)N[C@@H](Cc1ccc(OP(=O)(O)O)cc1)C(=O)N[C@@H](CCSC)C(=O)N[C@@H](C)C(=O)N1CCC[C@H]1C(=O)N[C@@H](Cc1ccc(O)cc1)C(=O)N[C@@H](CC(=O)O)C(=O)N[C@@H](CC(N)=O)C(=O)N[C@@H](Cc1ccc(O)cc1)C(=O)N[C@@H](CC(=O)O)C(=O)O  Kd (Signal transducer and activator of transcription 2, SH2 domain (Homo sapiens, UniProt P52630); binding): 1.89 µM
CC[C@H](CO)Nc1nc(NCc2ccc(-c3ccccn3)cc2)c2ncn(C(C)C)c2n1  Kd (CDK9 (Homo sapiens, UniProt P50750); binding, competition affinity chromatography; SH-SY5Y cell extract): 0.449 µM
